Published values from different studies.
Parts stem from different laboratories: compare values within a part only.

Study 1 — method: protein binding microarray; form: double-stranded DNA, one strand shown; medium: in vitro; concentration: not given; relative to: not given; reading: higher = stronger binding; quantity: E-score
Target: Histone acetyltransferase KAT6A, winged helix 2, GST fusion (KAT6A, Homo sapiens, UniProt Q92794, residues 85-181)
Notes: 8-mer, flanks averaged, mean of 2 arrays, mostly near background
Residues (chain): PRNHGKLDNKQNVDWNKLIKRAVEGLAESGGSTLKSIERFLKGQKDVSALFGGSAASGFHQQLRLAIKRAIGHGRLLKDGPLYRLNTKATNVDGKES
CCTGAAAG: 0.147
ACGTACCA: -0.0922
GTAAGTGA: 0.0374
CGTTTCGA: 0.0448
CAGAGCGG: 0.029
CTCATCTC: -0.0601
CCCATGTC: -0.0752
CCGACCGA: 0.0228
ATGCCAAC: 0.0962
CTAAGATC: -0.0846
CCGGGGGA: 0.163
CCGGTGAC: 0.024
CTCGCTTA: 0.0391
GGACGATA: -0.0949
TTCTTCAA: 0.175
ACGTATAG: -0.121
CCTCCCAA: 0.0547
ATTGTAGA: -0.0124
ATCCTCTA: -0.111
GCTCACTA: -0.107

Study 2 — method: protein-binding microarray; form: hairpin DNA; medium: in vitro; concentration: not given; relative to: not given; reading: higher = stronger binding; quantity: median fluorescence; constant ends, left off below: GAGGCCAT … ATGGCCTCACACTC
Target: Hepatocyte nuclear factor 3-beta, forkhead domain (FOXA2, Homo sapiens, UniProt Q9Y261, residues 142-269)
Notes: whole hairpin DNA, median over replicate spots
Residues (chain): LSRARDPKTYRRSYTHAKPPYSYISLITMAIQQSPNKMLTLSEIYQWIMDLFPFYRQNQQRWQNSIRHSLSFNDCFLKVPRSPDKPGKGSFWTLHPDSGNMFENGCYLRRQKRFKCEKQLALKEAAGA
GCAAACAAGGCCTCCTGGCCTTGTTTGC (5mC at 28): 3510 a.u.
GTAACCAACGCCTCCTGGCGTTGGTTAC (5mC at 36): 3050 a.u.
CGAAACAACGCCTCCTGGCGTTGTTTCG (5mC at 35): 3130 a.u.
CGAAACAACGCCTCCTGGCGTTGTTTCG (5mC at 9): 3200 a.u.
GTCGACAACGCCTCCTGGCGTTGTCGAC (5mC at 11): 3220 a.u.
GCAAACCACGCCTCCTGGCGTGGTTTGC (5mC at 15): 3380 a.u.
GCGACCAACGCCTCCTGGCGTTGGTCGC (5mC at 10): 3390 a.u.
GCAATCAACGCCTCCTGGCGTTGATTGC: 3340 a.u.
GTAAACAAGGCCTCCTGGCCTTGTTTAC: 3970 a.u.
GTAAACACCGCCTCCTGGCGGTGTTTAC: 4250 a.u.
GTAAATAACGCCTCCTGGCGTTATTTAC: 3760 a.u.
GCAACGAACGCCTCCTGGCGTTCGTTGC: 3420 a.u.

Study 3 — method: aptamer microarray, sandwich; form: DNA with 2'F-ANA; medium: in vitro; concentration: 200 nM; together with: Cy3 exosite-II aptamer, 400 nM; reading: higher = stronger binding; quantity: mean fluorescence intensity; strand: GGTTGGTGTGGTTGG
Target: Prothrombin, mature alpha-thrombin (F2, Homo sapiens, UniProt P00734)
Notes: whole 15-mer aptamer, many near background
2'F-ANA at 1 3 4 5 7 8 9 11 12 13 14: 61.2 a.u.
2'F-ANA at 2 3 5 6 7 10 12 13 14 15: 53.7 a.u.
2'F-ANA at 1 3 5 7 9 10 11 12 14: 47.1 a.u.
2'F-ANA at 4 8 10 11 14: 56.1 a.u.
2'F-ANA at 1 4 5 7 12 13 15: 70.1 a.u.
2'F-ANA at 2 3 4 5 6 7 8 11 13: 71.1 a.u.
2'F-ANA at 6 10 13 14: 98.9 a.u.
2'F-ANA at 1 2 6 7 8 10 11 13 14 15: 49.7 a.u.
2'F-ANA at 1 2 3 4 6 7 8 11: 158 a.u.
2'F-ANA at 1 2 5 6 9 10 11 12 13 15: 54.7 a.u.
2'F-ANA at 4 9 10 12 13 15: 89.2 a.u.
2'F-ANA at 2 4 6 7 8 11 13 15: 179 a.u.
2'F-ANA at 3 4 5 6 7 9 10 11 12 15: 56.1 a.u.
2'F-ANA at 2 4 6 8 9 11 14 15: 85.2 a.u.
2'F-ANA at 1 2 6 8 11 12 13 14 15: 69 a.u.
2'F-ANA at 1 2 4 5 6 9 12 15: 104 a.u.
2'F-ANA at 1 2 4 6 8 12: 320 a.u.
2'F-ANA at 4 5 6 7 8 9 10 11 12 14 15: 48.1 a.u.
2'F-ANA at 1 2 3 5 8 9 11 12 13 14: 50 a.u.
2'F-ANA at 4 5 8 10 11 13 14 15: 52.1 a.u.

Study 4 — method: RNA Bind-n-Seq; form: RNA; medium: in vitro; concentration: 200 nM; notes: whole 134-nt RNA, ends assumed; together with: 150 mM LiCl; relative to: input library; reading: higher = stronger binding; quantity: log2 enrichment; library: 7-deaza-guanosine replaces G
Target: Ras GTPase-activating protein-binding protein 1, full length (G3BP1, Homo sapiens, UniProt Q13283)
Sequence of UniProt Q13283 (whole entry, looked up): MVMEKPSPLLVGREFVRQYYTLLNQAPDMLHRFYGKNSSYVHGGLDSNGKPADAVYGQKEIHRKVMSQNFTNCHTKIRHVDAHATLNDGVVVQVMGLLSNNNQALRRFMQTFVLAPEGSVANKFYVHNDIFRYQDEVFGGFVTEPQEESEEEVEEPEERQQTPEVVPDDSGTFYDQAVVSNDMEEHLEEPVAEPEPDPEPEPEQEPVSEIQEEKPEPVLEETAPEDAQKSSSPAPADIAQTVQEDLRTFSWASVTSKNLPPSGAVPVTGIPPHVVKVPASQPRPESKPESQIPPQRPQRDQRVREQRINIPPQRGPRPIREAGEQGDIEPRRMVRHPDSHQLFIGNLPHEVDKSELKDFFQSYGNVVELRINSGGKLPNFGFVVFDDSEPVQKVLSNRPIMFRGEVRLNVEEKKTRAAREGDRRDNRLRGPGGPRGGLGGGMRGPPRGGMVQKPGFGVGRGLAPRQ
Constant ends, left off below: GGGAGUUCUACAGUCCGACGAUC … UGGAAUUCUCGGGUGUCAAGG
UGGCCCUGGUGGCAUGCGGGGAGGAAGAGGUGGCCUCAUGGAUCGUGGUGGUCCCGGUGGAAUGUUCAGAGGUGGCCGUGGUGGAAACAG: -0.194
AAGUCCUGUGCUACACAUCGUAUGUACCGAAUCGGCCCCGGGGCCCCGGGGCCCCGGAAAGUAUUAUGUUACGCCGUUCGGAUCUGCACU: -2.15
ACCAUGCAGGUGGGCAUCUUUGGGAAGUGGGGCGAGGGGGGGAUAGGGAGGGGGGUAACACUUUGGGAACAGGUGGUCCCAGGUCGUUUC: 0.134
CUCAAGUCCUGUGCUACACAUCGUAUGUACCGAAUCGGGCCGGCCGGGGCCGGGAAAGUAUUAUGUUACGCCGUUCGGAUCUGCACUUCC: 0.646
UAACUUUAGAGGAGGAUCUGAUCGAUAUGGCAGUGGACGUGGAUUUGGGGAUGGCUAUAAUGGGUAUGGAGGAGGACCUGGAGGUGGCAA: 0.193
CUCAAGUCCUGUGCUACACAUCGUAUGUACCGAAUCGGGUGGGAAAGGGAGGGAAAGUAUUAUGUUACGCCGUUCGGAUCUGCACUUCCA: 0.502
GCGGGAAGUAAAAACAAAUGGAAAUGCUUCGGAUAGUGGCAGGGGUGGGGGUUGCUAAGGAAAGGGUGGGAUGGGAGUGGGUAAAGAGUU: -0.224
CAAGUCCUGUGCUACACAUCGUAUGUACCGAAUCGGGUUUGGGUUUGGGUUUGGGAAAGUAUUAUGUUACGCCGUUCGGAUCUGCACUUC: -0.448
UCAAGUCCUGUGCUACACAUCGUAUGUACCGAAUCGGGUUGGUUGGGGUUGGGGAAAGUAUUAUGUUACGCCGUUCGGAUCUGCACUUCC: -0.545

Study 5 — method: RNAcompete; form: RNA; medium: in vitro; concentration: 20 nM; notes: 7-mer, probes averaged, single round; relative to: mean of 7-mers; reading: higher = stronger binding; quantity: 7-mer Z-score
Target: PABPC1L2, full length, GST fusion (mouse, UniProt A0ABA7IW68)
GGCUCCC: -0.197
UAUCAUC: -0.282
AAAUCUG: 1.1
UGUCAAC: -0.318
AUAUCGG: 0.126
CGGGAGU: 0.00979
GCGUGCU: -0.17
GGAGGAU: 0.066
UGUGUGU: -0.42
CGCCUUU: -0.282
UUAUGUU: -0.304
GUUUCAA: -0.336
CUUCAUA: -0.199
GGGGAAG: 0.325
CACAUCG: -0.00833
GAACUCG: -0.179
CAAUCAA: 0.254
UACUGCA: -0.124
GAGCUUA: -0.079
UACACUC: -0.146
GUUAAGA: 0.0569
AGCACUA: -0.122
UGGAUCG: 0.0189
AUCAUGA: -0.11
AAUUGUC: 0.017

Study 6 — method: RNA Bind-n-Seq; form: RNA; medium: in vitro; concentration: 365 nM; relative to: no-protein control; reading: higher = stronger binding; quantity: RBNS enrichment (R)
Target: RNA binding protein fox-1 homolog 2, RRM domain, GST-SBP tag (RBFOX2, Homo sapiens, UniProt O43251-10, residues 100-194)
Notes: natural RNA segment, single round, ends assumed
Constant ends, left off below: GGGAGUUCUACAGUCCGACGAUC … UGGAAUUCUCGGGUGCCAA
Target sequence (chain): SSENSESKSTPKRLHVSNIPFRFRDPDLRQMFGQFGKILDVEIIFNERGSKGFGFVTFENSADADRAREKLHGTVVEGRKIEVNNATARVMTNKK
CUUUGCAUGUUGUGUGUGAUAUACCUAGCCAGAAAUAGAUGUGGCUUUUGUUUUGGGGGCAGAUUACUUUCAAAAGCAAAUACAAUUCACUUGAAUUUGACAAACUGAAG: 5.87
GGAUGGCCCCAGCACAGCUUGACCUGAGGCUGUGGUCACAGCGGAGGUGUGGAGCCGAGGCCUACCCCGCAGACACCUUGGACAUCCUCCUCCCACCCGGCUGCAGAGGC: 0.529
GAGCCCCAUAGCGAGCUUGCCUUUUCUGACUGGGUCUUCUGGUCCCCCCUACACCAGCCAUAGGCCUGUUCUUUUUCUUCCUUCUGAAAACUGUGACCAGUUCAAAUUAU: 0.327
CCUCAUUAACCAGUGCUUUACCAAACAGCAAACCAAGAGAUUGCUAAUUGCUGUUGAAAGCAAAAAUGCUAAUAUUAAAAGUCACAGUGUUCUUUAUAUACAAUAAUGGA: 0.499
AUAUAUAUUUUAAUAUCUAUGUAAAAAAGUGACAGUGGAGGACUGAAUUUCUCAUGUAUACUAUGUUUAAUGGUAGGGUCUCACUGUUAAGGCACAAAUUAUUUCAAAGG: 0.537
CAGUAUUUAUUUUUACUGGGUGAGGAUUUUUCAACUUAACGUUUUAGGACUUAACCAAAUAACCAGUCCAUGAAUAAGCAACCCCAUUACCACAGACAGUACCCACGCUA: 0.529
GCUGGAGGAGGAAAGCGUGAGGACGGGGAUGAUUUUGAUCACGAUUCCAUUUAUUGCCUUUACAUAAGGUUGAGGGAAGGGGAAGGUUUGGUUUGUUUGUCUUUUAAUUG: 0.686
CUUGUGCAGCUCUGGAUCUCUGAGCCUCCCCUGACUAACCUUGAGUAGGAACAUGCUGAUGGGACACCAACAAAGCACAGGGUGCUUUUAAAAUAAAGCCCUGGGCCAGA: 0.339
CCCAUCUCGCUCAGCACAGGGUUUCUGUGGGAUGAGUUUGAUUCUCUUGUUCUCACUGCUGAACUGGUGUUUAAAAUUCUUCGCAGGUCAGAAGUUUGGGAACUCAAAAG: 0.367
UAAUAUAUUGUAAUCACAUUCCUUAGGAGGACUUUGGUAAUUGGUUUUAUGCAUUGAUGGUUUUUUUUUUCUUUUUUGCCAAAUUGACUGUCACGCGGCAGCUUCAGGGA: 0.838
UCUUGCCAACAACUGCAGAUGGUAACAGCUAUCAGUAUGCCUUCAGUCAGUCUUCCUUGAAUCUACCCAUCUCCUUAUACACACACUCACACACUCACACUCUCUAUGUC: 1.23
GUUUUAUCUUUUAAUGAUAACUUAGGUGCCCUUGGUGGGCUUUCCAAACCUGGUUACUCAACGUUAGCAGUGAAGCGAGCCGGUGGUGACUGUGGCUGGAAUGUGGUGGG: 0.817

Excerpt of the above (study 5):
UUAUGUU: -0.304
GUUUCAA: -0.336
CAAUCAA: 0.254
UACUGCA: -0.124
AAAUCUG: 1.1
AUAUCGG: 0.126
UGUCAAC: -0.318
UACACUC: -0.146
AUCAUGA: -0.11
GAACUCG: -0.179
